# Measured values from different studies.
# Compare with care: the assays were run in different laboratories. “And” joins repeats or separate records; there may be more than shown. ± marks the error that the study gave.
# BCHE: Cholinesterase (BCHE, Homo sapiens, UniProt P06276)
# UniProt P06276, sequence (whole entry, looked up): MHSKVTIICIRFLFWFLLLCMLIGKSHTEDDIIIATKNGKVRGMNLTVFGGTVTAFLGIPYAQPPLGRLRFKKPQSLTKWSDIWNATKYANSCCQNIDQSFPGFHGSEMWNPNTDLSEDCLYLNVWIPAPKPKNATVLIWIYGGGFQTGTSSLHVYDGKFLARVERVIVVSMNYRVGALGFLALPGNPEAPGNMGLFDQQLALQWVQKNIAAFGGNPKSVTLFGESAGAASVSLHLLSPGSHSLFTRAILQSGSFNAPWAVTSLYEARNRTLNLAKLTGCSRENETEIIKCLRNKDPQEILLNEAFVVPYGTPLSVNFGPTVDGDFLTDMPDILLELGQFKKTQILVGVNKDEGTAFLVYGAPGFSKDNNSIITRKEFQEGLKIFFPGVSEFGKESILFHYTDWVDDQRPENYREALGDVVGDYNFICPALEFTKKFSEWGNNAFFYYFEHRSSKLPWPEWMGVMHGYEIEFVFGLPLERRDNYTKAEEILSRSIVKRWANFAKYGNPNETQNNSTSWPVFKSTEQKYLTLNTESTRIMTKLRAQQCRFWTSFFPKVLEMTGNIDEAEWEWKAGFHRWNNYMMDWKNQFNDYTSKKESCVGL
# UniProt Q08345, sequence (whole entry, looked up): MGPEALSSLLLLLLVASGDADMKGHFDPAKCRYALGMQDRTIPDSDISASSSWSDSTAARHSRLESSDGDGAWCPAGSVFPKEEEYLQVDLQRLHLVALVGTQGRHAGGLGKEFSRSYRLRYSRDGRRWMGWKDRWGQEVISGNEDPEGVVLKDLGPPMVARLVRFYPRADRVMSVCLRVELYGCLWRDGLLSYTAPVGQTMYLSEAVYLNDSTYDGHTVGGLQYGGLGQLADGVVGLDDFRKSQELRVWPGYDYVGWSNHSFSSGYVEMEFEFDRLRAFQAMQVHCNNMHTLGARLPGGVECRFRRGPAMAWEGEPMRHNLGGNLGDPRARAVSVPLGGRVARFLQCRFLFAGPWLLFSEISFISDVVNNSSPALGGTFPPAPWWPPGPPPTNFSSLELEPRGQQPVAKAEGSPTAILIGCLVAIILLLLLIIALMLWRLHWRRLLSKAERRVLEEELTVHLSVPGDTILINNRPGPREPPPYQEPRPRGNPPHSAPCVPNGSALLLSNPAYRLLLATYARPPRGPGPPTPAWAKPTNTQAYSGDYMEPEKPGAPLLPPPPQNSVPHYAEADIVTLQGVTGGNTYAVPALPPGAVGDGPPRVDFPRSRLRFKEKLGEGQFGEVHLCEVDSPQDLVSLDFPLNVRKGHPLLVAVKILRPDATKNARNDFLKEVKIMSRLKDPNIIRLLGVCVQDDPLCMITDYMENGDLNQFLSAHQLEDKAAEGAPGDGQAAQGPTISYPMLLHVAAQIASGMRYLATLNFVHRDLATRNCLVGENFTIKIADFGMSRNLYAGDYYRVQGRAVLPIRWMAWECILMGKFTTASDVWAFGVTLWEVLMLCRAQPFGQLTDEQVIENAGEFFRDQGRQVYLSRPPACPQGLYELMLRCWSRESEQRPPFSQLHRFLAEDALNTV
# UniProt P30411, sequence (whole entry, looked up): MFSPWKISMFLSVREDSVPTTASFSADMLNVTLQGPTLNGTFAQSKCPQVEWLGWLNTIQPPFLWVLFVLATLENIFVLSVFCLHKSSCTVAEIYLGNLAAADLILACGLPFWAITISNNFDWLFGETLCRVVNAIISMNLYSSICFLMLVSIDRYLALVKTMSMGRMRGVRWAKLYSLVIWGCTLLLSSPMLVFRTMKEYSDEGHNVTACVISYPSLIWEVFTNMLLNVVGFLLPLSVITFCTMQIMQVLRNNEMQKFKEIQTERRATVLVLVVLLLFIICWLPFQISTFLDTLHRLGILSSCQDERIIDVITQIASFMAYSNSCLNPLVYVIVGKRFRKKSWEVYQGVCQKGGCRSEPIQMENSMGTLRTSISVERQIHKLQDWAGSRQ
SMILES,target or system,assay,test system,conditions,scale,measurement,result
CC(C)[C@@H]1NC(=O)CNC(=O)[C@H](CC(N)=O)NC(=O)[C@H](CCCNC(=N)N)NC(=O)[C@H](Cc2ccc(O)cc2)NC(=O)[C@H](C(C)C)NC(=O)[C@@H](NC(=O)[C@@H](NC(=O)[C@H](CC(N)=O)NC(=O)[C@H](Cc2c[nH]c3ccccc23)NC(=O)[C@H](C)NC(=O)[C@H](Cc2ccccc2)NC(=O)CN)C(C)C)CSSC[C@@H](C(=O)N[C@@H](Cc2cnc[nH]2)C(=O)N[C@@H](CCCNC(=N)N)C(=O)N[C@@H](CCCNC(=N)N)C(=O)N[C@@H](C)C(=O)N[C@@H](CC(N)=O)C(N)=O)NC(=O)[C@H](C(C)C)NC(=O)[C@H](CCCNC(=N)N)NC1=O,,,"ICR mice, serum","intraperitoneal, 10 mg/kg, day 5",,creatinine,86.4 ± 2.47 µmol/L
CP(=O)(O)CCCN,Plasmodium falciparum,,D10,,,IC50,2 µM
CN[C@H]1CC[C@@H](c2ccc(Cl)c(Cl)c2)c2ccccc21,,,"CD-1 mouse, male, plasma","intraperitoneal, 1 mg/kg",,AUC(0-t),29.2 ng·h/mL
Clc1ccc(Cl)c(-c2ccccc2Cl)c1,,,polyethylene-water partitioning,PCB compilation,relative to: maximum over minimum K,literature range factor,1.3
CCOc1cc(Oc2ccc(C(F)(F)F)cc2Cl)ccc1[N+](=O)[O-],,,rat male,"62.5 mg/kg, 8 days",,final body weight,138 ± 5.44 g
NC(=O)[C@H]1CCN(c2ncnc(N)c2F)C[C@@H]1N1CCC[C@@H](Nc2cc(Cl)cc(C(F)(F)F)c2)C1=O,,,B-cell malignancy patients,"oral, 246 mg twice daily, dose",,grade ≥3 lymphopenia,0%
O=C(NCCCNc1nc(Nc2cccc(CN3CCOCC3)c2)ncc1C1CC1)C1CCC1,BCHE,"inhibitor, fluorometric",,,,IC50,2.64 ± 0.363 µM
CCC[C@H]1CC[C@H](c2ccc(-c3ccc(F)cc3)cc2)CC1,,item: compound,"human pregnant women, male fetuses, maternal serum","dose not given, paired maternal-cord samples, mean",,concentration,0.81 ng/mL
COc1ccc2nc3cc(Cl)ccc3c(Nc3cc(CN4CCCC4)c(O)c(CN4CCCC4)c3)c2n1,,,"mouse, blood","oral, 57 mg/kg, tolerability, mean",,haematocrit,29.1%
c1ccc2c(c1)ccc1c3ccccc3ccc21,,,fresh water,"12 (unit not given), 20 °C, S30-2 sampler, 30 µm",,log K(PDMS-water),4.75 ± 0.01
CCCCCCC[N+](CC)(CC)CCCCc1ccc(Cl)cc1,BCHE,"inhibitor, fluorometric",,,,IC50,15.7 ± 7.41 µM
CN(C(=O)n1cnc(-c2ccc[n+]([O-])c2)c1)C1CCCCC1,"B2 bradykinin receptor (BDKRB2, Homo sapiens, UniProt P30411)",radioligand binding,,"50 µM, added: [3H]bradykinin",,inhibition,1%
CC[C@H](C)[C@H](NC(C)=O)C(=O)N[C@H]1CSSC[C@@H](C(=O)N[C@H](C(N)=O)[C@@H](C)O)NC(=O)[C@H](CCCNC(=N)N)NC(=O)[C@H](Cc2c[nH]cn2)NC(=O)[C@H](Cc2cccc3ccccc23)NC(=O)CNC(=O)[C@H](Cc2c[nH]c3ccccc23)NC(=O)[C@H](CC(=O)O)NC(=O)[C@H](CCC(N)=O)NC(=O)[C@H](Cc2cn(C)c3ccccc23)NC(=O)[C@H](C(C)C)NC1=O,,"isocratic RP-HPLC, C18","32% acetonitrile, phosphate pH 7.4, 1% TFA",25 °C,,log retention factor,1.01
CC(C)N(CCc1c[nH]c2cccc(OC(=O)CCCC(=O)O)c12)C(C)C.Cl,,,"male beagle dog, plasma","subcutaneous, 1 mg/kg",,half-life,78 min
c1ccc2c(c1)-c1ccc3ccc4cccc5cc-2c1c3c45,,,polyethylene-water partitioning,PAH compilation,,literature range of log K,5.8 to 7.62 log units
CC[C@H](C)[C@H](NC(=O)[C@H](Cc1ccccc1)NC(=O)[C@H](CCC(=O)O)NC(=O)[C@H](CCCNC(=N)N)NC(=O)[C@H](C)NC(=O)[C@H](C)NC(=O)[C@H](CCC(N)=O)NC(=O)[C@H](CCC(=O)O)NC(=O)[C@H](CCC(=O)O)NC(=O)[C@H](CC(C)C)NC(=O)[C@H](Cc1ccc(O)cc1)NC(=O)[C@H](CO)NC(=O)[C@H](CO)NC(=O)[C@@H](NC(=O)[C@H](CC(=O)O)NC(=O)[C@H](CO)NC(=O)[C@@H](NC(=O)[C@H](Cc1ccccc1)NC(=O)[C@@H](NC(=O)CNC(=O)[C@H](CCC(=O)O)NC(=O)[C@H](C)NC(=O)CCc1c[nH]cn1)[C@@H](C)O)[C@@H](C)O)C(C)C)C(=O)N[C@@H](C)C(=O)N[C@@H](Cc1c[nH]c2ccccc12)C(=O)N[C@@H](CC(C)C)C(=O)N[C@H](C(=O)N[C@@H](CCCNC(=N)N)C(=O)NCC(=O)N[C@@H](CCCNC(=N)N)C(=O)N[C@@H](CCCCNC(=O)COCCOCCNC(=O)COCCOCCNC(=O)CC[C@H](NC(=O)CCCCCCCCCCCCCCCCC(=O)O)C(=O)O)C(=O)NCC(=O)NCC(=O)N[C@@H](CO)C(=O)N[C@@H](CCCCNc1c(NCCCCCN(O)C(=O)CCC(=O)NCCCCCN(O)C(=O)CCC(=O)NCCCCCN(O)C(C)=O)c(=O)c1=O)C(=O)O)C(C)C [zirconium-89 labelled],,,"rat, liver","iv, 3 nmol/kg, 4 h, ex vivo",,tissue uptake,1.02 %ID/g
CCc1ccc(CC/C=C/c2ccc3c(c2)C(=O)CC3)cc1,,,"Sprague-Dawley rat, male","oral, 30 mg/kg/day, 14 days",,Erythrocyte percentage,13.3%
C[C@@H]1N=C(c2ccccc2F)c2cc(Br)ccc2-n2cnc(C(=O)O)c21,,,mouse liver S9 fraction,"10 µM, 2 h, glucuronidation",,parent remaining,~85%
CC1Cc2cc3c(cc2C(c2ccc(N)cc2)=NN1)OCO3 (stereo not drawn),Plasmodium falciparum,,W2,,,IC50,5.01 µM
COc1cc2c(Oc3ccc4[nH]c(C)cc4c3F)ccnc2cc1OCC1(N)CC1,,,paediatric recurrent refractory sarcoma,8 mg,,grade 3 Proteinuria,0%
CC(C)=CC1C(C(=O)OC(C#N)c2cccc(Oc3ccccc3)c2)C1(C)C (stereo not drawn),,,pooled human liver cytosol,,,CLint,1350 µL/min/mg
COc1cccc2c1CCCC2CCCN1CCN(C2CCCCC2)CC1 (stereo not drawn),,,"CD-1 mouse, male, lung","intraperitoneal, 10 mg/kg",,Tmax,15 min
CO[C@H]1C[C@@H]2CC[C@@H](C)[C@@](O)(O2)C(=O)C(=O)N2CCCC[C@H]2C(=O)O[C@H]([C@H](C)C[C@@H]2CC[C@@H](OC(=O)NCCOCCOCCOCCOCCOCCOCCOCCOCCC(=O)N3CCc4cc(Cn5nc(-c6ccc7oc(N)nc7c6)c6c(N)ncnc65)ccc4C3)[C@H](OC)C2)C[C@@H](O)[C@H](C)/C=C(\C)[C@@H](O)[C@@H](OC)C(=O)[C@H](C)C[C@H](C)/C=C/C=C/C=C/1C,,,patients with advanced solid tumours,"intravenous, 12 mg weekly, any grade",,headache incidence,41.7%
CC[C@H](C)[C@H](NC(=O)[C@H](Cc1ccccc1)NC(=O)[C@H](CCC(=O)O)NC(=O)[C@H](CCCNC(=N)N)NC(=O)[C@H](C)NC(=O)[C@H](C)NC(=O)[C@H](CCC(N)=O)NC(=O)[C@H](CCC(=O)O)NC(=O)[C@H](CCC(=O)O)NC(=O)[C@H](CC(C)C)NC(=O)[C@H](Cc1ccc(O)cc1)NC(=O)[C@H](CO)NC(=O)[C@H](CO)NC(=O)[C@@H](NC(=O)[C@H](CC(=O)O)NC(=O)[C@H](CO)NC(=O)[C@@H](NC(=O)[C@H](Cc1ccccc1)NC(=O)[C@@H](NC(=O)CNC(=O)[C@H](CCC(=O)O)NC(=O)[C@H](C)NC(=O)CCc1cnc[nH]1)[C@@H](C)O)[C@@H](C)O)C(C)C)C(=O)N[C@@H](C)C(=O)N[C@@H](Cc1c[nH]c2ccccc12)C(=O)N[C@@H](CC(C)C)C(=O)N[C@H](C(=O)N[C@@H](CCCNC(=N)N)C(=O)NCC(=O)N[C@@H](CCCNC(=N)N)C(=O)N[C@@H](CCCCNC(=O)COCCOCCNC(=O)COCCOCCNC(=O)CC[C@H](NC(=O)CCCCCCCCCCCCCCCCC(=O)O)C(=O)O)C(=O)NCC(=O)NCC(=O)N[C@@H](CO)C(=O)N[C@@H](CCSC)C(=O)N[C@H](C(=O)N[C@@H](CCCCNc1c(NCCCCCN(O)C(=O)CCC(=O)NCCCCCN(O)C(=O)CCC(=O)NCCCCCN(O)C(C)=O)c(=O)c1=O)C(=O)O)C(C)C)C(C)C [zirconium-89 labelled],,ex vivo gamma counting,"male Sprague-Dawley rats, colon","intravenous, 5 MBq (1 nmol), 72 h",,tissue uptake,0.093 %ID/g and 0.099 %ID/g and 0.087 %ID/g
C[C@H]1CN(c2n[nH]c3nc(N[C@H]4CC[C@H](NS(=O)(=O)CCC(F)(F)F)CC4)ncc23)CCO1,"Epithelial discoidin domain-containing receptor 1 (DDR1, Homo sapiens, UniProt Q08345)","inhibitor, Kinobeads competition profiling",,0.8 µM,relative to: vehicle,relative abundance,1.02
C[C@@H]1OC(=O)NN=C1c1ccc(-c2ccc(F)cc2)c(C(F)(F)F)c1,,"phase I trial, item: Diarrhoea all grades",human patients,10 mg loading then 0.5 mg daily,,patients with adverse event,100%
Cn1cc(-c2nc(N[C@@H]3CCCC[C@@H]3N)c(F)c3c2C(=O)NC3)cn1,,item: Gastric haemorrhage,patients with relapsed or refractory AML,"oral, 80 mg twice daily",,hemorrhagic adverse events,67%
O=C1Nc2cc3[nH]nc(-c4ccncc4)c3cc2CN1Cc1ccccc1,,CTCAE v4.03,"human, relapsed or refractory advanced solid tumours","intravenous, 4.8 mg/kg",,patients with subretinal fluid,33%
CC(C)C[C@@H]1NC(=O)CNC(=O)[C@H](CC(N)=O)NC(=O)[C@H](CCCNC(=N)N)NC(=O)[C@H]([C@@H](C)O)NC(=O)[C@@H]2CSSC[C@@H]3NC(=O)[C@H]([C@@H](C)O)NC(=O)CNC(=O)CNC(=O)[C@H](C(C)C)NC(=O)[C@@H]4CSSC[C@H](NC(=O)[C@H]([C@@H](C)O)NC(=O)[C@H](CSSC[C@H](NC(=O)[C@H](C(C)C)NC(=O)[C@@H]5CCCN5C1=O)C(=O)NCC(=O)N[C@@H](CCC(=O)O)C(=O)N[C@@H]([C@@H](C)O)C(=O)N4)NC(=O)CNC(=O)[C@@H]1CCCN1C(=O)[C@H]([C@@H](C)O)NC(=O)[C@H](CC(N)=O)NC3=O)C(=O)N[C@@H](CCCCN)C(=O)N[C@@H](Cc1c[nH]c3ccccc13)C(=O)N1CCC[C@H]1C(=O)N[C@@H](C(C)C)C(=O)N2,,HPLC,ammonium bicarbonate 0.1 M,"180 µM, 14 days, pH 9.0, 37 °C, deamidation stability",,remaining peptide,31.9 ± 3.2%
O=S(=O)(Nc1ccccc1)c1ccc(NC(=S)Nc2ccccc2)cc1,,item: BUN,"male mouse, blood","oral, 80 mg/kg daily, 14 days",,blood chemistry level,19 mg/dL
COc1ncccc1-c1cnn2ccc(N3CCN(C(=O)OC(C)C)CC3)nc12,,,"rat, CCI mechanical allodynia model, brain","oral, 10 mg/kg, 240 min",,drug concentration,3.8 µM
Cn1cncc1-c1c(F)cncc1NC(=O)c1c(N)nn2cc(F)cnc12,,,human patients,"oral, 150 mg twice daily, 4 days per 3 days, 21 days",,platelet count decreased DLT,0%
O=C(Nc1ccccc1)C1CCN(C(=O)Oc2cccnc2)CC1,,psychotropic effects VAS,healthy women,60 mg,"relative to: pre-dose baseline, direction not given",change in Sounds score,12

# A few entries again:
SMILES,target or system,assay,test system,conditions,scale,measurement,result
CCOc1cc(Oc2ccc(C(F)(F)F)cc2Cl)ccc1[N+](=O)[O-],,,rat male,"62.5 mg/kg, 8 days",,final body weight,138 ± 5.44 g
O=C(NCCCNc1nc(Nc2cccc(CN3CCOCC3)c2)ncc1C1CC1)C1CCC1,BCHE,"inhibitor, fluorometric",,,,IC50,2.64 ± 0.363 µM
O=C1Nc2cc3[nH]nc(-c4ccncc4)c3cc2CN1Cc1ccccc1,,CTCAE v4.03,"human, relapsed or refractory advanced solid tumours","intravenous, 4.8 mg/kg",,patients with subretinal fluid,33%
C[C@H]1CN(c2n[nH]c3nc(N[C@H]4CC[C@H](NS(=O)(=O)CCC(F)(F)F)CC4)ncc23)CCO1,"Epithelial discoidin domain-containing receptor 1 (DDR1, Homo sapiens, UniProt Q08345)","inhibitor, Kinobeads competition profiling",,0.8 µM,relative to: vehicle,relative abundance,1.02
CCCCCCC[N+](CC)(CC)CCCCc1ccc(Cl)cc1,BCHE,"inhibitor, fluorometric",,,,IC50,15.7 ± 7.41 µM
